Measurements collected from several papers.
A part holds a random share of what one study measured. Changes are numbered by the printed parent chain.

Study 1 — technique: protein binding microarray; molecule type: double-stranded DNA, one strand shown; sample: in vitro; tested at: not given; baseline: not given; direction: higher = stronger binding; quantity: E-score
Target: Histone acetyltransferase KAT6A, both winged helices, GST fusion (KAT6A, Homo sapiens, UniProt Q92794, residues 1-181)
Notes: 8-mer, flanks averaged, mean of 2 arrays, mostly near background
Target sequence (chain): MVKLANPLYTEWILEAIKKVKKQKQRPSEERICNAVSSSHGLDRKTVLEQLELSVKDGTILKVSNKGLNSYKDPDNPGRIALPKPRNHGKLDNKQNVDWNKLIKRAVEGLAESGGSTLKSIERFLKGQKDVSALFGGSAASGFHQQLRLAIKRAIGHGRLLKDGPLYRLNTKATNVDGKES
GACGGCTA: 0.286
AAGATATA: -0.0806
GTAAGGAA: -0.188
CGCCATAC: 0.0617
CATGCTCA: -0.0377
GCGCAGCA: 0.151

Study 2 — technique: RNA Bind-n-Seq; molecule type: RNA; sample: in vitro; tested at: 200 nM; notes: whole 134-nt RNA, ends assumed; with: 150 mM LiCl; baseline: input library; direction: higher = stronger binding; quantity: log2 enrichment; library: 7-deaza-guanosine replaces G
Target: Fragile X messenger ribonucleoprotein 1, C-terminal low-complexity region (Fmr1, Mus musculus, UniProt P35922)
All sequences stand within: GGGAGUUCUACAGUCCGACGAUC … UGGAAUUCUCGGGUGUCAAGG
ACCAUGCAGGUGGGCAUCUUUGGGAAGUGGGGCAAGGGAGGGAUAGGGAGGGGGGUAACACUUUGGGAACAGGUGGUCCCAGGUCGUUUC: 1.4
UUGACCUAGAGGAUGAGACCAUUGAUGCCGAGGUCAUGAACUCUCUAGCAGUUACUAUGGAUGACUUCCGGGUAAGGACCACACCCGUGC: -1.92
CCUCAAGUCCUGUGCUACACAUCGUAUGUACCGAAUCGGCGGGGCGGGCGGGAAAGUAUUAUGUUACGCCGUUCGGAUCUGCACUUCCAG: -0.325
CAAGUCCUGUGCUACACAUCGUAUGUACCGAAUCGGAAAAAGGAAAAAAAGGUGGAAAGUAUUAUGUUACGCCGUUCGGAUCUGCACUUC: -1.43
CACAGACAACACGCACCCACACAGACACAGAGGGAAGGGGUUGGGAUGGGGACUGGGUGCACAGCAGGGCGGGGUAGGACCCCAGCCCCU: 0.183
UCCUGUGCUACACAUCGUAUGUACCGAAUCGGCCCCCCCGGCCCCCCCGGCCCCCCCGGGAAAGUAUUAUGUUACGCCGUUCGGAUCUGC: 1.07
UCAAGUCCUGUGCUACACAUCGUAUGUACCGAAUCGGGUUUGGGUGGGUUUGGGAAAGUAUUAUGUUACGCCGUUCGGAUCUGCACUUCC: -1.1

Study 3 — target: CCNB2, cyclin fold, Cln2 fusion (human); technique: yeast growth competition, sequencing; sample: yeast; notes: strong parent motif; baseline: not given; direction: higher = stronger binding; quantity: normalised enrichment score
Starting sequence: E2F1 docking peptide (human); PPVKRRLDFETDH; partner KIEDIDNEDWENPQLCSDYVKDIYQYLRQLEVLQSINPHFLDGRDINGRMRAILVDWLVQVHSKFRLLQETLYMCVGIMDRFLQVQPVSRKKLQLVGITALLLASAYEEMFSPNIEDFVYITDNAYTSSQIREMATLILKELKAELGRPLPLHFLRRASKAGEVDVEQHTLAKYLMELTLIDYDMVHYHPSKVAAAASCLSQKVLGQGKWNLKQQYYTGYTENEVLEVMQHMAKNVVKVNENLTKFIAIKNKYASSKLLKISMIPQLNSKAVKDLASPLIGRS
R6C: 2.59
D12Q: 3.25
E10P: 1.64
K4S: 2.23

Study 4 — technique: Sort-seq; measured: YFP reporter; sample: E. coli; notes: PhoQ-PhoP variant library; with: 10 µM Mg2+; baseline: high Mg2+ state; direction: higher = stronger signaling; quantity: fold induction
Molecule: PhoQ, residues 284 288 289 292 302 303 SIHMAM
PhoP, residues 12 14 15 18 19 SFCSL (Escherichia coli, UniProt P23836): 13.8
PhoP, residues 12 14 15 18 19 AYFRS (Escherichia coli, UniProt P23836): 8.87
PhoP, residues 12 14 15 18 19 HHYTI (Escherichia coli, UniProt P23836): 1.83
